Measured values gathered from unrelated publications.
Each numbered part is a random draw from the data of one study; scales do not carry over between parts. Positions count from the first letter of the parent shown.
Sequence of UniProt P62837 (whole entry, looked up): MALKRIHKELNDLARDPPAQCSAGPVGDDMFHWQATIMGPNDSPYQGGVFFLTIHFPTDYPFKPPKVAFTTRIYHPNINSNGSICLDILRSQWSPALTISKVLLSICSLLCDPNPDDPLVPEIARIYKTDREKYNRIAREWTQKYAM

Block 1 — technique: RNA Bind-n-Seq; form: RNA; medium: in vitro; tested at: 90 pmol; setting: 4-mer, random 30-nt RNA, single round; baseline: input library; reading: higher = stronger binding; endpoint: 4-mer enrichment
Target: Eukaryotic initiation factor 4A-I (EIF4A1, Homo sapiens, UniProt P60842, residues 1-406, full length assumed)
Sequence of UniProt P60842 (whole entry, looked up): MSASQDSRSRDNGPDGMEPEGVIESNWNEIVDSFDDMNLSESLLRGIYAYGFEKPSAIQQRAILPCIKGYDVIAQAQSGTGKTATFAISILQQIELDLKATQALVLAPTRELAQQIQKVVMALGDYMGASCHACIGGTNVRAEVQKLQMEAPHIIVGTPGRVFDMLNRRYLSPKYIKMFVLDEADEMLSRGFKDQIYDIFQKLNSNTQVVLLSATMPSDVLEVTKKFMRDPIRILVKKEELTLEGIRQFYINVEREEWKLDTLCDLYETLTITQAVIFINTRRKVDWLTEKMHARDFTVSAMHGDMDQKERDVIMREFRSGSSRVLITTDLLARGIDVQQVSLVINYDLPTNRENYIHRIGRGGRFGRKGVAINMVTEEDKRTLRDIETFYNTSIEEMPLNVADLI
Together with: 3 µM iPr-DMDA-PatA, 2 mM ADP, 2 mM phosphate
AUCU: 1.13 fold
AAAC: 1.46 fold
AAGU: 1.24 fold
CAUG: 0.897 fold
UGUA: 1.08 fold
CUCA: 1.03 fold
GCCA: 0.839 fold
UCAG: 1.02 fold

Block 2 — technique: aptamer microarray, sandwich; form: DNA with 2'F-ANA; medium: in vitro; tested at: 200 nM; together with: Cy3 exosite-II aptamer, 400 nM; reading: higher = stronger binding; endpoint: mean fluorescence intensity; strand: GGTTGGTGTGGTTGG
Target: Prothrombin, mature alpha-thrombin (F2, Homo sapiens, UniProt P00734)
Setting: whole 15-mer aptamer, many near background
2'F-ANA at 2 4 5 8 9 10 12 13 15: 48.9 a.u.
2'F-ANA at 2 3 4 6 9 11 12 14 15: 228 a.u.
2'F-ANA at 4 5 6 12 13: 84.7 a.u.
2'F-ANA at 1 2 3 4 9 10 13 14: 50.4 a.u.
2'F-ANA at 1 2 8 11 15: 181 a.u.
2'F-ANA at 1 2 4 6 7 8 10 13 14: 49.7 a.u.
2'F-ANA at 1 2 4 5 7 8 14: 43 a.u.
2'F-ANA at 4 5 6 7 8 12 13 15: 96 a.u.

Other studies, line by line — CCNB3: CCNB3, cyclin fold, Cln2 fusion (human)
P1: viral docking peptide; PTARRRLLHDLDT; partner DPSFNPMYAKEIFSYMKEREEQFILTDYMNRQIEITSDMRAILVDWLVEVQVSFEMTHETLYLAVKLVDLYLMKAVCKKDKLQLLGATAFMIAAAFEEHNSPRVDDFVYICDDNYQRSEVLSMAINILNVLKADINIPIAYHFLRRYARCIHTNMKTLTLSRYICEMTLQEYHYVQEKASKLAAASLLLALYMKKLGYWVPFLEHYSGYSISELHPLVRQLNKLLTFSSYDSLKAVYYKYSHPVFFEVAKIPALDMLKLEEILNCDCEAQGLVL
P1 T13A
normalised enrichment score (CCNB3; yeast growth competition, sequencing; yeast; weak parent motif; baseline: not given, higher = stronger binding): 0.163

EIF5B (Homo sapiens, UniProt O60841)
cross-linked residues (LILRB5 (Homo sapiens, UniProt O75023); cross-linking MS; cell fractions; together with: DMTMM): E884 to K80

P1 R5K
normalised enrichment score (CCNB3; yeast growth competition, sequencing; yeast; weak parent motif; baseline: not given, higher = stronger binding): -0.191

RIPOR1 (Homo sapiens, UniProt Q6ZS17)
cross-linked residues (NDUFA12 (Homo sapiens, UniProt Q9UI09); cross-linking MS; cell fractions; together with: DSSO): S1104 to K43

ANYISAHTKDCPKCNICIEKNGGCNHMQCSKCKHDFCWMCLGDWKTHGSE (ARIH2 RING domain (UniProt O95376))
lacZ reporter activity (UBE2D2 UBC core domain (UniProt P62837); yeast two-hybrid; peptide, yeast; mostly zero background; baseline: not given, higher = stronger interaction): 0

Repeated from above (block 2):
2'F-ANA at 2 4 5 8 9 10 12 13 15: 48.9 a.u.
2'F-ANA at 2 3 4 6 9 11 12 14 15: 228 a.u.
2'F-ANA at 4 5 6 12 13: 84.7 a.u.
